# Measurements collected from several papers.
# Every numbered part comes from another study and shows a few of its results, in no order. Changes are numbered by the printed parent chain.

# Study 1 — method: universal PBM; molecule type: double-stranded DNA, one strand shown; medium: in vitro; concentration: 600 nM; direction: higher = stronger binding
# Target: Sal-like protein 4, full length isoform A (SALL4, Homo sapiens, UniProt Q9UJQ4, residues 1-1053)
# UniProt Q9UJQ4, sequence (whole entry, looked up): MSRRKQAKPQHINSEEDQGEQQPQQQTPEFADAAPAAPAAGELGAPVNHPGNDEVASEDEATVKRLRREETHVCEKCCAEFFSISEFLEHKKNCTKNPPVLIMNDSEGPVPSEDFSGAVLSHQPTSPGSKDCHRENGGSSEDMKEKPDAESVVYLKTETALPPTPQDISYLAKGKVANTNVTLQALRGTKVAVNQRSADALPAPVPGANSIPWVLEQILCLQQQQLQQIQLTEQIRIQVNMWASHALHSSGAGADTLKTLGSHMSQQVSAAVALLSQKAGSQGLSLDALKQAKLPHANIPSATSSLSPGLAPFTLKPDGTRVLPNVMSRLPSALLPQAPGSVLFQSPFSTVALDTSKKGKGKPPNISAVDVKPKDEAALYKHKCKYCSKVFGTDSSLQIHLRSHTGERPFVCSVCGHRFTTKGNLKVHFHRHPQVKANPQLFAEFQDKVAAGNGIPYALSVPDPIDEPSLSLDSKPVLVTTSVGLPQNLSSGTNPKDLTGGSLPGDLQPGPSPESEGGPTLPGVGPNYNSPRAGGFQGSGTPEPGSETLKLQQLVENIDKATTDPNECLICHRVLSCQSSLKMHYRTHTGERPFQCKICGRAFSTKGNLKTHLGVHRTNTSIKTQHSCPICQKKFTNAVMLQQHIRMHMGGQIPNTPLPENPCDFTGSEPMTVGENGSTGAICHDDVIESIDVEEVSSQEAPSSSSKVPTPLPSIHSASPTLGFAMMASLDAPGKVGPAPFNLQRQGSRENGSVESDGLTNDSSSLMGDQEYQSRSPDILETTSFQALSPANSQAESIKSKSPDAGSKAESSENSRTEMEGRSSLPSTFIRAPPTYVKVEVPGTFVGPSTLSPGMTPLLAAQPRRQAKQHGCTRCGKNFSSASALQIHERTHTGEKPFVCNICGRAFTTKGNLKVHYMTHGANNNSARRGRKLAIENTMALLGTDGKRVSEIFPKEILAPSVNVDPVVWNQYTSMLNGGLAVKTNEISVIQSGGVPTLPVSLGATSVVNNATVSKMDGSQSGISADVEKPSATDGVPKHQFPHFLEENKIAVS
# Notes: 8-mer, flanks averaged, mean of replicates
Strand,E-score
ACGATTAA,0.243
ATTCAATC,0.185
ATTAGATC,0.161
GCGTGCCA,-0.339
ATAATCTA,0.372
CGCGCCCC,-0.339
TACAAACA,0.24
CTTAGAAA,0.0838
CACGCAAG,-0.0184
ACGAGAGT,0.0695
ACACGCTA,-0.0114
ACTATAAA,0.326
AAATCGAC,0.0863
GTGAACAC,-0.155
GGCCGTTA,-0.0345
CCGCTACG,-0.277
AAGGGATC,-0.108
CTTGTTAA,0.193
GTGGCACA,-0.204

# Study 2 — method: RNA Bind-n-Seq; molecule type: RNA; medium: in vitro; concentration: 365 nM; reference: no-protein control; direction: higher = stronger binding
# Target: RNA binding protein fox-1 homolog 2, RRM domain, GST-SBP tag (RBFOX2, Homo sapiens, UniProt O43251-10, residues 100-194)
# Notes: natural RNA segment, single round, ends assumed
# All sequences stand within: GGGAGUUCUACAGUCCGACGAUC … UGGAAUUCUCGGGUGCCAA
# Target sequence (chain): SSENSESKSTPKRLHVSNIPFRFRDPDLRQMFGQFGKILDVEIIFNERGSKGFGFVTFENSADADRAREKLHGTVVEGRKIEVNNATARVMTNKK
Strand,RBNS enrichment (R)
CCAGGCCUGGCCUCCUGAUGCCUUUUGCAUUGCAGCUGUGUGUUUGAAAACUGAGACUCACAUCCAAGGUUUCAAACCACAAAACCUUGGCAUGACUCUGCCAUGGUGUC,0.403
AUGGGCAGAGUGGAGCUGACACUCUCUCCUCAGGCAGCCUCCUCAGCCUUUAUUCGUCAACGGCCUCUGCUCAGCCAGGCCCUUCCAGACAAAAGGCACUGAGGAACUUG,0.354
AACAUUUGUGUUUUGGAGCUCACUUUUAGUUUUGAAACGGCCUUUGCUCGUUAUAUUGUGAUCCAGUACAUUUUAUGUUAAAUUGUUUAUCAGCCAUUUCUGUUGUGAAC,0.654
GCUGCCUUUUGUCUAGCCUGCUAUGGGGGGCCAGAUUAUCUUGAUAAGAGCAGGUGAUUUGGGGACUAGCUGGGUUGGCAGGAAAAGAGCAGGAUGGAUCUCUUGGGACA,1.29
AGGAUUUAAGCUUAGGGGAUUUUAUUUUUAUAAAUACCAGAUUAUUGUUAGACUUAAUAAAUCACUGUUAAAUUUAAAGAUGACAGUUACCUUGGAAAGUUCACUAAUAC,0.567
GUUAGUGUUUUGCCUCACCUAAUAGGCUGGGAGACUGAAGACUCAGCCCGGGUGGGGCUGCAGAAAAAUGAUUGGCCCCAGUCCCCUUGUUUGUCCCUUCUACAGGCAUG,0.587
CAAAAGCGGCAGAUCUUUACUGAAAGAGAGAGCAGCUGUUAUGCAACAUAUAGAAAAAUGUAUAGAUGCUUGGACAGACCCGGUAAUGGGUGGCCAUUGGUAAAUGUUAG,1.18
AAAAGCAAAGCUUCCUAAAAAGAUUUUUCUUGGCAGCUCCAGGUCUAUACAUUUAGGUAAUGAAUGGUAGUAGAACUAAUAGCUUUAACAGGAGAAUAGGGAAUGAGAAA,0.54

# Study 3 — method: RNA Bind-n-Seq; molecule type: RNA; medium: in vitro; concentration: not given; reference: input RNA pool; direction: higher = stronger binding
# Target: RING finger protein unkempt homolog, zinc fingers 1-6, GST-SBP tag (UNK, Homo sapiens, UniProt Q9C0B0, residues 30-357)
# UniProt Q9C0B0, sequence (30-357, looked up): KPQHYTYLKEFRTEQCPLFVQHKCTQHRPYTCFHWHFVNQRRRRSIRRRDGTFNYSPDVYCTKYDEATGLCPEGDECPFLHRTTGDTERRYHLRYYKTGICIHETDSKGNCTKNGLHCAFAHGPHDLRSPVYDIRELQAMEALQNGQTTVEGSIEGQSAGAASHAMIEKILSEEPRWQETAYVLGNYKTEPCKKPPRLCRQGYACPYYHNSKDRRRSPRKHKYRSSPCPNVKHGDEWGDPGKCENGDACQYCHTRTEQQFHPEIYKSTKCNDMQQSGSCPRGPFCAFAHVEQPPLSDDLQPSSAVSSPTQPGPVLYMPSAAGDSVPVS
# Notes: RNA with constant flanks, human and mouse sites, ends assumed
# All sequences stand within: GGGAGUUCUACAGUCCGACGAUC … CAACAGAGGAUUGAGCAUCA
Strand,bound/input enrichment [ratio]
CUGCUGAGGCUGUGUCACCGGGGUCAGACCCUGUUAGUUGUGUCUGCGUGCCCAUUCUUUUUUGGUUUGUUCAUUUAUUGUUUGUUGUUGUUGUUGUUGUUGUUGUUAGUUUUUCCAGGU,12.4
CACAAGGAGCAGGCGGCCCAGCUGCGGAACCUGGUGCAGUGUGGUGACUUUCCUCAUCUGUUAGUGUACGGACCAUCAGGUGCUGGAAAAAAGACAAGAAUUAUGUGUAUUCUACGUGAA,0.169
CUAUACUGGAAGCAUGCGCCCAAGACCUGCAAGAACUUCGCGGAGCUGGCUCGGCGGGGCUACUACAAUGGCACCAAGUUCCACAGGAUCAUCAAGGACUUCAUGAUCCAAGGCGGCGAC,0.127
UUUUCUUUUUCUUUUUUCUUUCUUUUUUUUUUUUUUUUUUUUUUUGAGUUGUUGUUUGUUUUUAGAUCCACAGUACAUGAGAAUCCUUUUUUGACAAGCCUUGGAAAGCUGACACUGUCU,2.64
GAUGACAUCAUUCGGCAUGACUUCUUCCUGCAGGGUUUCACUCCGGACAGACUCUCUUCCAGCUGUUGCCACACAGUUCCAGAUUUCCACUUGUCAAGCCCAGCCAAGAAUUUCUUUAAG,0.215
CCAGAUGGCUGGUUCUCUAAAGGCAGUAACUACAGUGAGAUCCUAGACAAGUACUUUAAGAGCUUUGAUAAUGGCGACUCUCACCUGGACUCCAGUGAAUUCCUGAAAUUCGUGGAGCAG,0.158
ACUGAGCAGAAUGAAGAACUGAGCAUCUUAUAUCCAGCCGCCAUUGUGACGAUUGAUGGAUUUAGUCUCUUUCAGUCUCUUCGAGCCUGUCGAAACCAAGUAGCAAAAGCUGCAGCAUCA,0.21
UCCGCUCGGAAAAUGCGCCUGGGAGAUGCUGUUGAACAGGGUGUGAUUAAUAACACAGUAUUAGGCUAUUUCAUUGGCCGCAUCUACCUCUACCUCACGAAGGUUGGAAUAUCUCCAGAU,0.137

# Study 4 — method: DHFR PCA, deep sequencing; medium: yeast; with: (+)-ABA 0.0091 µM; reference: wild-type fitted maximum; direction: higher = stronger binding
# Target: ABI1, truncated, D143A, DHFR fusion (Arabidopsis thaliana)
# Notes: methotrexate growth selection, single substitutions
# Starting sequence: PYL1, truncated, DHFR fusion (Arabidopsis thaliana); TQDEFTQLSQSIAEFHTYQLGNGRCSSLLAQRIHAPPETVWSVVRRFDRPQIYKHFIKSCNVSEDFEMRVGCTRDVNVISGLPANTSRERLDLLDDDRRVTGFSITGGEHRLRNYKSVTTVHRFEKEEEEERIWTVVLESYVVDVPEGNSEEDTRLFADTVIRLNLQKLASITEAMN; partner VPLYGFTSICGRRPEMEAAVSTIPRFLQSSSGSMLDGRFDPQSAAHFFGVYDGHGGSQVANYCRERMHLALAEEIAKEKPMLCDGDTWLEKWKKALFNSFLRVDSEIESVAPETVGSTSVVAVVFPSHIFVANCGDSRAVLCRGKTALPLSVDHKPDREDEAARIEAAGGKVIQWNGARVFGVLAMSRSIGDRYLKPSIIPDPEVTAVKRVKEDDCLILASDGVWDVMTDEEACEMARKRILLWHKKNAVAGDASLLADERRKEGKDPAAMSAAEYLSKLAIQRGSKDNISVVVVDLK
Variant,relative binding score [%]
T73K,-3.68
C60F,-5.39
Q10D,49.8
G21T,34.8
G108D,-4.26
D92Q,-11.4
N22S,40
K116C,3.95
Q31W,2.67
K168M,-0.576
S87C,37.7
I133P,49
E152A,17.9
G102T,-1.47
R32Q,9.27

# Study 5 — method: protein binding microarray; molecule type: double-stranded DNA, one strand shown; medium: in vitro; concentration: not given; reference: not given; direction: higher = stronger binding
# Target: Histone acetyltransferase KAT6A, both winged helices, GST fusion (KAT6A, Homo sapiens, UniProt Q92794, residues 1-181)
# Notes: 8-mer, flanks averaged, mean of 2 arrays, mostly near background
# Target sequence (chain): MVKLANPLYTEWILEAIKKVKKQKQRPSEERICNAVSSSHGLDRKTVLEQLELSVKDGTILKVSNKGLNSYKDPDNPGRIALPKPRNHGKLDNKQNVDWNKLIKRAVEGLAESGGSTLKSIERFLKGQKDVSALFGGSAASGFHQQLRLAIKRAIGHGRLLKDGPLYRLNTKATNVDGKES
Strand,E-score
ATGTATTG,0.00702
CACCATGG,-0.105
CATCAATG,-0.0312
AGGAGACG,0.0497
ATCTCCAT,-0.167
ACGTGTAA,-0.0607
GTGTTAAA,-0.0796
ACCACATC,-0.206
CACACGCC,0.13
CAGTTACA,-0.0176
AATAGTGG,-0.102
CGTAGTGA,0.0488
CGGGGAGC,0.173
CACGCACC,0.169
CTCACTAC,-0.161
AGCGGGCA,0.179
CGTGCTGA,-0.0144
CCTCAAGG,-0.241

# For quick reference, copied from above (study 2):
Strand,RBNS enrichment (R)
GCUGCCUUUUGUCUAGCCUGCUAUGGGGGGCCAGAUUAUCUUGAUAAGAGCAGGUGAUUUGGGGACUAGCUGGGUUGGCAGGAAAAGAGCAGGAUGGAUCUCUUGGGACA,1.29
GUUAGUGUUUUGCCUCACCUAAUAGGCUGGGAGACUGAAGACUCAGCCCGGGUGGGGCUGCAGAAAAAUGAUUGGCCCCAGUCCCCUUGUUUGUCCCUUCUACAGGCAUG,0.587
CAAAAGCGGCAGAUCUUUACUGAAAGAGAGAGCAGCUGUUAUGCAACAUAUAGAAAAAUGUAUAGAUGCUUGGACAGACCCGGUAAUGGGUGGCCAUUGGUAAAUGUUAG,1.18
AAAAGCAAAGCUUCCUAAAAAGAUUUUUCUUGGCAGCUCCAGGUCUAUACAUUUAGGUAAUGAAUGGUAGUAGAACUAAUAGCUUUAACAGGAGAAUAGGGAAUGAGAAA,0.54
CCAGGCCUGGCCUCCUGAUGCCUUUUGCAUUGCAGCUGUGUGUUUGAAAACUGAGACUCACAUCCAAGGUUUCAAACCACAAAACCUUGGCAUGACUCUGCCAUGGUGUC,0.403
AGGAUUUAAGCUUAGGGGAUUUUAUUUUUAUAAAUACCAGAUUAUUGUUAGACUUAAUAAAUCACUGUUAAAUUUAAAGAUGACAGUUACCUUGGAAAGUUCACUAAUAC,0.567
AACAUUUGUGUUUUGGAGCUCACUUUUAGUUUUGAAACGGCCUUUGCUCGUUAUAUUGUGAUCCAGUACAUUUUAUGUUAAAUUGUUUAUCAGCCAUUUCUGUUGUGAAC,0.654
